Experimental data of several laboratories.
Lines come from different studies, so protocols differ. Numbers after ± are the reported error.

Structure (SMILES) | assay | test system | setting | half-life [h]
CN1C(=O)[C@@H](NC(=O)c2nnc(Cc3ccccc3)[nH]2)COc2ccccc21 | – | healthy men, plasma | oral, 20 mg once daily, day 1, geometric mean | 3.84
N[C@@H](Cc1ccccc1)C(=O)OC[C@H]1O[C@@H](n2cc(F)c(=O)[nH]c2=O)C[C@@H]1O | – | human pancreas homogenate | pH 7.4, 37 °C, protein 500 µg/mL | 0.365 ± 0.0467
CC(C)(c1ccc(O)cc1)c1ccc(O)cc1 | GC-MS | exposure tank water with snails, reconstituted water | 500 ng/L nominal, 20 °C | 3.9
N=C(Nc1ccc(OCCCCCCCCCCn2ccnc2)cc1)c1ccccn1 | LC-MS | mouse liver microsomes | 3 µM | 0.867 to 1.13
CO[C@H]1C[C@@H]2CC[C@@H](C)[C@@](O)(O2)C(=O)C(=O)N2CCCC[C@H]2C(=O)O[C@H]([C@H](C)C[C@@H]2CC[C@@H](O)[C@H](OC)C2)CC(=O)[C@H](C)/C=C(\C)[C@@H](O)[C@@H](OC)C(=O)[C@H](C)C[C@H](C)/C=C/C=C/C=C/1C | – | paediatric BMT recipients, whole blood | oral, 2.5 mg/m²/day | 24.5 ± 11.2
CCOc1ccc(Cc2cc([C@@H]3S[C@H](CO)[C@@H](O)[C@H](O)[C@H]3O)c(OC)cc2C)cc1 | – | Japanese type 2 diabetes patients, plasma | oral, 5 mg single dose, eGFR 60-89 mL/min/1.73 m^2 | 10.9 ± 0.752
CCCCC[C@H](O)CC[C@@H]1[C@H]2Cc3cccc(OCC(=O)O)c3C[C@H]2C[C@H]1O | – | Japanese patients with PAH, plasma | inhaled, 54 µg four times daily, week 12 | 0.72 ± 0.11
O=C(O)C[C@H](O)C[C@H](O)/C=C/c1c(C2CC2)nc2ccccc2c1-c1ccc(F)cc1 | – | healthy Chinese female volunteers, plasma | oral, 2 mg once daily, multiple dose | 12.9
COc1ccc2c3c1O[C@H]1C[C@@H](OC(=O)c4ccccc4)C=C[C@@]31CCN(C)C2 | – | healthy elderly men, plasma | intranasal, 44 mg, single dose | 2.8
CS(=O)(=O)n1cc2c(n1)CN([C@H]1CO[C@H](c3cc(F)ccc3F)[C@@H](N)C1)C2 | – | healthy Japanese men, plasma | oral, 50 mg once weekly, day 15 | 73.7
CCC(CC)COC(=O)[C@H](C)N[P@](=O)(OC[C@H]1O[C@@](C#N)(c2ccc3c(N)ncnn23)[C@H](O)[C@@H]1O)Oc1ccccc1 | – | human liver microsomes | 1 µM, pH 7.4, added: NADPH | ~0.0167
NC(=O)c1cnc2[nH]ccc2c1N[C@@H]1[C@@H]2CC3C[C@H]1C[C@@](O)(C3)C2 | – | healthy Japanese men, plasma | oral, 20 mg, single dose fasted | 3.7
CC(C)[C@H](N)C(=O)OC[C@H]1O[C@@H](n2cc(F)c(=O)[nH]c2=O)C[C@@H]1O | – | human pancreas homogenate | pH 7.4, 37 °C, protein 500 µg/mL | 0.7117 ± 0.005
Cc1ccc(N(C)C(=O)[C@H](Cc2ccccc2)NC(=O)CNC(=O)c2ccccc2)cc1 | – | human liver microsomes | 1 µM, pH 7.4, added: cobicistat 0.5 µM | 0.7
Nc1cc(F)ccc1NC(=O)c1ccc(CNC(=O)/C=C/c2cccnc2)cc1 | – | Japanese patients, plasma | oral, 40 mg twice weekly, cycle 1 day 25, arithmetic mean | 18.7
CC[C@H](C)[C@H](NC(=O)[C@H](C)NC(=O)[C@H](CCC(=O)O)NC(=O)[C@H](CCSC)NC(=O)[C@@H](NC(=O)[C@@H](N)C(C)C)[C@@H](C)O)C(=O)N[C@@H](CC(N)=O)C(=O)N[C@@H](CC(C)C)C(=O)N[C@@H](C)C(=O)N[C@@H](Cc1ccccc1)C(=O)N1CCC[C@H]1C(=O)NCC(=O)O | residual EphA4 binding inhibition | C2C12 conditioned medium | 500 µM, 37 °C | ~90
CC[C@H](C)[C@H](N)C(=O)OC[C@H]1O[C@@H](n2cc(F)c(=O)[nH]c2=O)C[C@@H]1O | – | human pancreas homogenate | pH 7.4, 37 °C, protein 500 µg/mL | 1.1 ± 0.12

Structure (SMILES) | assay | test system | setting | half-life [h]
N=C(N)NCCC[C@H](NC(=O)[C@H](CCCNC(=N)N)NC(=O)[C@H](CCCNC(=N)N)NC(=O)[C@H](CCCNC(=N)N)NC(=O)[C@H](CCCNC(=N)N)NC(=O)[C@H](CCCNC(=N)N)NC(=O)[C@H](CCCNC(=N)N)NC(=O)[C@H](CCCNC(=N)N)NC(=O)[C@@H](N)CCCNC(=N)N)C(N)=O | – | human serum | 10 µM, 37 °C | 0.0317
COc1cc(OC)c(/C=C/S(=O)(=O)Cc2ccc(OC)c(NCC(=O)O)c2)c(OC)c1 | – | cancer patients, phase I, plasma | oral, 280 mg twice daily, day 21 cycle 1 | 5.29 ± 1.09
N[C@@H](Cc1ccccc1)C(=O)N[C@@H](Cc1ccc(O)cc1)C(=O)OC[C@H]1O[C@@H](n2cc(F)c(=O)[nH]c2=O)C[C@@H]1O | – | human small intestine homogenate | pH 7.4, 37 °C, protein 1000 µg/mL | 1.88 ± 0.883
CCC(=O)Oc1ccc(C=C(C#N)C(=O)NCCCNC(=O)C(C#N)=Cc2ccc(OC(=O)CC)c(OC(=O)CC)c2)cc1OC(=O)CC | – | rat plasma (Wistar, male) | 100 µM, pH 7.4, 37 °C, 5 % plasma in phosphate buffer | ~0.0383
COc1ccc2[nH]c([S+]([O-])Cc3ncc(C)c(OC)c3C)nc2c1 (stereo not shown) | – | healthy Chinese, CYP2C19 *3/*3, plasma | oral, 20 mg single dose | 2.88
CC#CC(=O)N1CCC[C@H]1c1nc(-c2ccc(C(=O)Nc3ccccn3)cc2)c2c(N)nccn12 | – | Japanese patients, plasma | oral, 100 mg twice daily, day 8, fasting, multiple dose, arithmetic mean | 1.8
C=C(C)[C@@H]1CC[C@]2(NCCN3CCS(=O)(=O)CC3)CC[C@]3(C)[C@H](CC[C@@H]4[C@@]5(C)CC=C(C6=CC[C@@](CF)(C(=O)O)CC6)C(C)(C)[C@@H]5CC[C@]43C)[C@@H]12 | – | healthy adults, plasma | oral, 200 mg once daily, after day 7 dose, added: dolutegravir 50 mg | 23.4
COc1ccc(F)c(CCCC2CCC(CCNCCCCCN3N=C(c4ccc(OC)c(OC)c4)[C@H]4CC=CC[C@H]4C3=O)O2)c1 (stereo partly shown) | – | mouse liver microsomes | 40 µM, 37 °C, added: NADPH | > 1
C[C@]12C=CC(=O)C=C1CC[C@@H]1[C@@H]2[C@@H](O)C[C@@]2(C)[C@H]1C[C@H]1O[C@@H](C3CCCCC3)O[C@]12C(=O)CO | – | children with asthma, serum | inhaled, 80 µg ciclesonide, day 7, HFA-MDI with spacer, mixed distribution-elimination phase | 1.78 ± 0.11
O=C1[C@@H](O)[C@@H]2OC[C@@H](O2)[C@H]1O | – | sodium acetate buffer | 10 mM, pH 5.0, 70 °C, β-elimination | 3.5
CCN(C(=O)[C@H](Cc1ccccc1)NC(=O)CNC(=O)c1ccccc1)c1ccccc1 | – | mouse liver microsomes | 1 µM, pH 7.4, added: cobicistat 0.5 µM | 0.467
N[C@@H](Cc1c[nH]cn1)C(=O)NCCc1c[nH]c2ccccc12 | – | mouse plasma | 500 ng/mL, up to 4 h, 37 °C | > 16.7
Cc1c(OS(=O)(=O)Oc2ccc(Oc3ccccc3)cc2)cccc1C(=O)NO | – | buffer with or without glutathione | 50 µM, pH 7.4, 37 °C, added: glutathione 2 mM | > 20
Cc1ccc(NC(=O)c2ccc(CN3CCN(C)CC3)cc2)cc1Nc1nccc(-c2cncc(-c3oncc3C)c2)n1 | – | healthy volunteers, plasma | oral, 200 mg once daily, day 1, 7-day dosing, mean | 17.7
Nc1nc(NC2CC2)c2ncn([C@H]3C=C[C@@H](CO)C3)c2n1 | – | HIV-infected children and adolescents, Tanner stage 3-5, plasma | oral, 8 mg/kg | 1.4
CNCCC(Oc1ccc(C(F)(F)F)cc1)c1ccccc1 (stereo not shown) | – | whole body | oral, high dose, depuration phase | 240
O=C(CCc1ccccc1)N[C@H]1COC1=O | – | PBS, 10% MeCN | 1 µM, pH 7.4, 37 °C | 0.5

Repeated from above:
Structure (SMILES) | assay | test system | setting | half-life [h]
CN1C(=O)[C@@H](NC(=O)c2nnc(Cc3ccccc3)[nH]2)COc2ccccc21 | – | healthy men, plasma | oral, 20 mg once daily, day 1, geometric mean | 3.84
N[C@@H](Cc1ccccc1)C(=O)OC[C@H]1O[C@@H](n2cc(F)c(=O)[nH]c2=O)C[C@@H]1O | – | human pancreas homogenate | pH 7.4, 37 °C, protein 500 µg/mL | 0.365 ± 0.0467
